Published values pooled from the literature.
Protocols differ between the studies behind these lines. Numbers after ± are the reported error.

Compound | tested on | assay | test system | setting | endpoint | value
CC(C)(C)C(=O)OCOP(=O)(OCOC(=O)C(C)(C)C)C1CCCN(O)C1=O (stereo not drawn) | ACHN | – | – | – | GI50 | 340 nM
CSCC[C@@H]1NC(=O)[C@H](C(C)C)NC(=O)[C@H](CCCNC(=N)N)NC(=O)CNC(=O)[C@@H]2CCCN2C(=O)[C@@H](NC(=O)CNC(=O)[C@H](CO)NC(=O)CNC(=O)[C@H](CO)NC(=S)Nc2ccc(C[C@H]3CN(CC(=O)O)CCN(CC(=O)O)CCN3CC(=O)O)cc2)CSSC[C@@H](C(N)=O)NC(=O)[C@@H]2CCCN2C(=O)CNC(=O)[C@H](CCC(=O)O)NC(=O)[C@H](CC(=O)O)NC(=O)[C@H](CC(=O)O)NC(=O)CNC(=O)[C@H](CC(C)C)NC(=O)[C@H](Cc2c[nH]cn2)NC(=O)[C@H](CC(C)C)NC(=O)CNC(=O)[C@H](Cc2c[nH]cn2)NC1=O [copper-64 labelled] | – | dynamic PET | CD rat, myocardial infarction model, remote myocardium | intravenous, 18.5 MBq, 15 to 60 min | half-life | 24 ± 8.4 min
C#Cc1c(F)ccc2cc(O)cc(-c3ncc4c(N5CC6CCC(C5)N6C(=O)OC(C)OC(=O)C(C)C)nc(OC[C@@]56CCCN5C[C@H](F)C6)nc4c3F)c12 (stereo partly drawn) | – | metabolic stability | mouse, liver microsomes | 1 µM, pH 7.4 | half-life | 0.68 min
COCCCCNC(=O)CC(Cc1ccc(F)cc1)NC(=O)C(Cc1ccc(Cl)cc1Cl)NC(=O)C(N)Cc1ccccc1C#N (stereo not drawn) | – | metabolic stability | CD-1 mouse, liver microsomes | 1 µM | half-life | 14 min
CSCC[C@@H]1NC(=O)[C@H](C(C)C)NC(=O)[C@H](CCCNC(=N)N)NC(=O)[C@@H]2CCCN2C(=O)CNC(=O)[C@@H](NC(=O)CNC(=O)[C@H](CO)NC(=O)CNC(=O)[C@H](CO)NC(=S)Nc2ccc(C[C@H]3CN(CC(=O)O)CCN(CC(=O)O)CCN3CC(=O)O)cc2)CSSC[C@@H](C(N)=O)NC(=O)[C@@H]2CCCN2C(=O)CNC(=O)[C@H](CCC(=O)O)NC(=O)[C@H](CC(=O)O)NC(=O)[C@H](CC(=O)O)NC(=O)CNC(=O)[C@H](CC(C)C)NC(=O)[C@H](Cc2c[nH]cn2)NC(=O)[C@H](CC(C)C)NC(=O)CNC(=O)[C@H](Cc2c[nH]cn2)NC1=O [copper-64 labelled] | – | dynamic PET | CD rat, myocardial infarction model, fibrotic infarct myocardium | intravenous, 18.5 MBq, 0 to 5 min | half-life | 2.6 ± 0.4 min
O=C(O)/C=C\c1ccc2occc2c1O[C@@H]1O[C@H](CO)[C@@H](O)[C@H](O)[C@H]1O | – | – | rat, plasma | oral, 217 mg/kg Pc extract, dosed as Pc extract | half-life | 149 ± 52.2 min
CNC(=O)C[C@H](Cc1ccc(F)cc1)NC(=O)[C@@H](Cc1ccc(Cl)cc1Cl)NC(=O)[C@H](N)Cc1ccccc1C#N | – | metabolic stability | CD-1 mouse, liver microsomes | 1 µM | half-life | 0.9 min
CN(C)[C@H]1C[C@@]23CC[C@@]4(O2)C(=CC[C@]2(C)[C@@H](c5ccc6ccncc6c5)CC[C@H]24)C=C3[C@@H](O)[C@@H]1O | MAP3K6 (Homo sapiens, UniProt O95382) | ATP probe labelling, inhibitor, KiNativ profiling | – | 1 µM | inhibition | -0.2%
NC1(CNC(=O)Oc2cccc([C@H]3CCC[C@@]4(C3)OOC3(O4)C4CC5CC(C4)CC3C5)c2)CCCC1 (stereo partly drawn) | – | metabolic stability | human, liver microsomes | – | half-life | 96.8 min
N[C@H](C(=O)N1CCCC1)C1CCN(c2nccc3c(-c4ncc(Cl)cc4Cl)cccc23)CC1 | PADI4 (Homo sapiens, UniProt Q9UM07) | enzyme activity, inhibitor | – | 60 µM | inhibition | 101%
CCN(CC)CCOc1ccc(-c2nnn(Cc3ccc(OC)cc3)c2N)cc1 | – | metabolic stability | mouse, plasma | – | half-life | > 373 min
COCC12CCC(OC)C34C5CC6(O)C(OC)C(O)C(O)(C5C6OC(=O)c5ccccc5)C(C(OC)C13)C4N(C)C2 (stereo not drawn) | – | – | Sprague-Dawley rat, plasma | oral, dose not given, with H in PCW extract | half-life | 607 ± 307 min
CC(C)[C@H]1NC(=O)C[C@H]2/C=C/CCSSC[C@@H](NC1=O)C(=O)N[C@H](Cc1cccc3ccccc13)C(=O)NCC(=O)O2 | YES1 (Homo sapiens, UniProt P07947, T348I) | enzyme activity, inhibitor | – | 10 µM | inhibition | -2.3%
N#Cc1ccccc1CC(N)C(=O)NC(Cc1ccc(Cl)cc1Cl)C(=O)NC(CC(=O)NCCCc1cccnc1)Cc1ccc(F)cc1 (stereo not drawn) | – | metabolic stability | CD-1 mouse, liver microsomes | 1 µM | half-life | 2.5 min
CCN1CC2(COC)C(O)CC(OC)C34C5CC6(O)C(OC)C(O)C(O)(C5C6OC(=O)c5ccccc5)C(C(OC)C23)C14 (stereo not drawn) | – | – | Sprague-Dawley rat, plasma | oral, dose not given, with NADES in PCW extract | half-life | 289 ± 128 min
O=C1NC2(CC2)COc2ncc(F)cc2[C@H]2COCCN2c2ccn3ncc1c3n2 | – | – | Sprague-Dawley rat, female, kidneys | oral, 10 mg/kg/day, 4 weeks dosing, end of recovery | organ-to-body weight ratio | 0.675 ± 0.056%
C#Cc1c(F)ccc2cc(O)cc(-c3ncc4c(N5CC6CCC(C5)N6C(=O)OC(C)OC(=O)c5ccccc5)nc(OC[C@@]56CCCN5C[C@H](F)C6)nc4c3F)c12 (stereo partly drawn) | – | metabolic stability | mouse, liver microsomes | 1 µM, pH 7.4 | half-life | 0.64 min
Cc1cc(-c2ccc3ccccc3c2)nnc1NCCN1CCN(C)CC1 | Cytochrome P450 2C9 (CYP2C9, Homo sapiens, UniProt P11712) | substrate | recombinant enzyme | 100 nM | half-life | > 60 min

For quick reference, copied from above:
Compound | tested on | assay | test system | setting | endpoint | value
C#Cc1c(F)ccc2cc(O)cc(-c3ncc4c(N5CC6CCC(C5)N6C(=O)OC(C)OC(=O)C(C)C)nc(OC[C@@]56CCCN5C[C@H](F)C6)nc4c3F)c12 (stereo partly drawn) | – | metabolic stability | mouse, liver microsomes | 1 µM, pH 7.4 | half-life | 0.68 min
